# Results pooled from the literature.
# Compare with care: the assays were run in different laboratories. Numbers after ± are the reported error.
# Route: intravenous
Structure (SMILES),test,system,conditions,tissue uptake
Cc1cc(C)n(CCN(CCN)CCCCCCNC(=O)[C@@H](N)Cc2c[nH]cn2)n1.[99Tc+].[C-]#[O+].[C-]#[O+].[C-]#[O+],,"BALB/c nude mice, A549 xenograft, lung",4 h,0.72 ± 0.24 %IA/g
O=C([O-])CN1CCN(CC(=O)[O-])CCN(CC(=O)NC[C@H]2CC[C@H](C(=O)N[C@H](Cc3cnc4ccccc4c3)C(=O)NCCCC[C@H](NC(=O)N[C@@H](CCC(=O)O)C(=O)O)C(=O)O)CC2)CCN(CC(=O)[O-])CC1.[64Cu+2],ex vivo gamma counting,"22Rv1 tumour-bearing mice, spleen","0.74 MBq, 2 h post-injection",5.86 %ID/g
O=C(NCC1OC2CCC=CCCC2O1)c1ccc(COCCOCCOCC[18F])cc1 (stereo not shown),,"healthy female BALB/c nude mice, spleen","7.4 MBq per mouse, 120 min",1.6 ± 0.1 %ID/g
COc1ccc(Nc2nc(Nc3ccc(OCCOCC[18F])cc3)ncc2Br)cc1,,"ICR mice, S180 tumour-bearing, lung","370 kBq, 30 min",2.84 ± 0.34 %ID/g
CCCC[C@H](NC(=O)CNC(=O)CNC(=O)[C@H](CCCCNC(=O)[C@H](CC(=O)O)NC(=O)C(C)c1ccc(CC(C)C)cc1)NC(=O)CN1CCN(CC(=O)O)CCN(CC(=O)O)CCN(CC(=O)O)CC1)C(=O)N[C@H]1CC(=O)NCCCC[C@@H](C(N)=O)NC(=O)[C@H](Cc2c[nH]c3ccccc23)NC(=O)[C@H](CCCNC(=N)N)NC(=O)[C@@H](Cc2ccccc2)NC(=O)[C@H](Cc2c[nH]cn2)NC1=O (stereo partly shown) [lutetium-177 labelled],,"C57 mice, tumour-bearing, liver","0.037 MBq, 4 h",2.45 ± 0.19 %ID/g
CC(C)C[C@H](NC(=O)[C@@H](CCCCNC(=O)[C@@H](Cc1ccccc1)NC(=O)CCCCCCCNC(=O)CN1CCN(CC(=O)O)CCN(CC(=O)O)CCN(CC(=O)O)CC1)NC(=O)[C@H](Cc1ccc(O)cc1)NC(=O)[C@H](CO)NC(=O)[C@H](Cc1c[nH]c2ccccc12)NC(=O)[C@H](Cc1c[nH]cn1)NC(=O)[C@@H]1CCC(=O)N1)C(=O)N[C@@H](CCCNC(=N)N)C(=O)N1CCC[C@H]1C(=O)NCC(N)=O [indium-111 labelled],,"male athymic nude mice, DU-145 prostate cancer xenograft, pancreas","dose not given, 1 h, together with: unlabeled blocking peptide 10 µg",0.24 ± 0.06 %ID/g
CCCC[C@H](NC(=O)CCCCCCCNC(=O)CN1CCN(CC(=O)O)CCN(CC(=O)O)CC1)C(=O)N[C@H]1CC(=O)NCCCC[C@@H](C(N)=O)NC(=O)[C@H](Cc2c[nH]c3ccccc23)NC(=O)[C@H](CCCNC(=N)N)NC(=O)[C@@H](Cc2ccccc2)NC(=O)[C@H](Cc2c[nH]cn2)NC1=O [fluorine-18 labelled],,"C57 mice B16-F10 melanoma, tumor","0.37 MBq, 1 h",13 ± 0.98 %ID/g
O=C(NCC1OC2CCC=CCCC2O1)c1ccc([18F])nc1 (stereo not shown),,"healthy female BALB/c nude mice, brain","7.4 MBq per mouse, 2 min",2.2 ± 0.4 %ID/g
CCCC[C@H](NC(=O)COCCOCCNC(=O)CN1CCN(CC(=O)O)CCN(CC(=O)O)CC1)C(=O)N[C@H]1CC(=O)NCCCC[C@@H](C(N)=O)NC(=O)[C@H](Cc2c[nH]c3ccccc23)NC(=O)[C@H](CCCNC(=N)N)NC(=O)[C@@H](Cc2ccccc2)NC(=O)[C@H](Cc2c[nH]cn2)NC1=O [fluorine-18 labelled],,"C57 mice B16-F10 melanoma, bone","0.37 MBq, 1 h",4.51 ± 0.68 %ID/g
COc1ccc(Nc2nc(Nc3ccc(OCCOCCOCC[18F])cc3)ncc2Br)cc1,,"ICR mice, S180 tumour-bearing, tumor","370 kBq, 5 min",3.08 ± 0.2 %ID/g

# Some of these lines once more:
Structure (SMILES),test,system,conditions,tissue uptake
COc1ccc(Nc2nc(Nc3ccc(OCCOCCOCC[18F])cc3)ncc2Br)cc1,,"ICR mice, S180 tumour-bearing, tumor","370 kBq, 5 min",3.08 ± 0.2 %ID/g
